Measured values gathered from unrelated publications.
A part holds a random share of what one study measured. Substitutions count along the parent as printed.

Sample 1
Target: CREB3, bZIP domain (human)
Method: DHFR protein complementation
Matrix: yeast
Setting: single substitutions, most at no-binding floor
Relative to: wild-type JUN-FOS pair
Direction: higher = stronger binding
Measurement: binding fitness
Parent: JUN, bZIP domain (human); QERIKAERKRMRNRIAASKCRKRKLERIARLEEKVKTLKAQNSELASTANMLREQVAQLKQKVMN; partner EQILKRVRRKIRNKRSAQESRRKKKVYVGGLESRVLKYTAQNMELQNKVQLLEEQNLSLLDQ
L45S: -1.49 natural log
A49T: -1.51 natural log
L52F: -1.52 natural log
K36H: -1.39 natural log
L45Y: -1.57 natural log
L45F: -1.44 natural log
L31M: -1.46 natural log
E54W: -1.46 natural log
L52A: -1.52 natural log
K36Q: -1.5 natural log
K34A: -1.29 natural log
K34S: -1.51 natural log
E33P: -1.56 natural log

Sample 2
Target: Ras GTPase-activating protein-binding protein 1, full length (G3BP1, Homo sapiens, UniProt Q13283)
UniProt Q13283, sequence (whole entry, looked up): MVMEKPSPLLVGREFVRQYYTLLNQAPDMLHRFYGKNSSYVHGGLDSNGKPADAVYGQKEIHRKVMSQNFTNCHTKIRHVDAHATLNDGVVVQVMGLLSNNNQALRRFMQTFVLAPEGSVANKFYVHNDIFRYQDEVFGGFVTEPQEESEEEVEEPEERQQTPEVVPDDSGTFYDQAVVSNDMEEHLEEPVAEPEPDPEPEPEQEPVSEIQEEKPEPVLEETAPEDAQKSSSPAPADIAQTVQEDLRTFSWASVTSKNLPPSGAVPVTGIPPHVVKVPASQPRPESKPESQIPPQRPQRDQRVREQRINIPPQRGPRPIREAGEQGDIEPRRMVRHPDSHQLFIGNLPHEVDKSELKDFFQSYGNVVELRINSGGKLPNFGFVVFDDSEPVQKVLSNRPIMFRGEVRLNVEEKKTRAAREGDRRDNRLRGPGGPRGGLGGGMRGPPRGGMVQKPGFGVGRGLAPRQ
Method: RNA Bind-n-Seq
Form: RNA
Matrix: in vitro
Tested at: 200 nM
Setting: whole 134-nt RNA, ends assumed
Added: 150 mM KCl
Relative to: input library
Direction: higher = stronger binding
Measurement: log2 enrichment
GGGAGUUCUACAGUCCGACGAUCAAGUCCUGUGCUACACAUCGUAUGUACCGAAUCGGGGUUUUGGGUUUUGGUUUUGGGAAAGUAUUAUGUUACGCCGUUCGGAUCUGCACUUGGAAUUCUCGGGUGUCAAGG: -0.69
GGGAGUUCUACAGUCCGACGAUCUUUUCAAAAUAAGGAGCUUCCCAGACCUGUGUUAGAAGGGCAGCAGUCAGAGAGGACCCCAAAUAAUCGCCCUGAUGCCCCUAAGGAGAAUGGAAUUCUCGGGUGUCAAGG: -0.43
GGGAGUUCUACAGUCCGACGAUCUCCUGUGCUACACAUCGUAUGUACCGAAUCGGGGUUUUUUUGGGGUUUGGGGAAAGGGGAAAGUAUUAUGUUACGCCGUUCGGAUCUGCAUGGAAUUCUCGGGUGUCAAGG: 0.893
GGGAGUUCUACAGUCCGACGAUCGUCCUGUGCUACACAUCGUAUGUACCGAAUCGGUUUUUUGGUUUUUUGGUUUUUUGGGAAAGUAUUAUGUUACGCCGUUCGGAUCUGCACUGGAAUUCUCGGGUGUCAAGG: -1.3
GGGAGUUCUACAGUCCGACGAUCUCAAGUCCUGUGCUACACAUCGUAUGUACCGAAUCGGUUUUUGGUUUUUGGUGGAAAGUAUUAUGUUACGCCGUUCGGAUCUGCACUUCCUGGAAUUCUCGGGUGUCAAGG: -0.953
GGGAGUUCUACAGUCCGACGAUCUGGGAGGUGGAUUUUGUUUAUUUUUUUAGCUCAUUUCCAGGGUUGGGAAUUUUUUUUUAAUAUGUGUCAUGAAUAAAGUUGUUUUUGAAAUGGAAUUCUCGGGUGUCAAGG: -0.511
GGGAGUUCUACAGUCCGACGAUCCUCAAGUCCUGUGCUACACAUCGUAUGUACCGAAUCGGGGAGGGAGGGAGGGGAAAGUAUUAUGUUACGCCGUUCGGAUCUGCACUUCCAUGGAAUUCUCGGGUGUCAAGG: 1.64
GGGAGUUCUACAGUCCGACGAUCCACAGACAACACGCACCCACACAGACACAGAGGGAAGGGGUUGGGAUGGGGACAGGGUGCACAACAGGGCGGGGUAGGACCCCAGCCCCUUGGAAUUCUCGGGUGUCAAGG: 1.94
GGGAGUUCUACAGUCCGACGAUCUAACUUUAGAGGAGGAUCUGAUGGAUAUGGCAGUGGACGUGGAUUUGGGGAUGGCUAUAAUGGAUAUGGAGGAGGACCUGGAGGUGGCAAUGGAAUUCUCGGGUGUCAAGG: 0.357

Sample 3
Target: RNA binding protein fox-1 homolog 2, RRM domain, GST-SBP tag (RBFOX2, Homo sapiens, UniProt O43251-10, residues 100-194)
Method: RNA Bind-n-Seq
Form: RNA
Matrix: in vitro
Tested at: 365 nM
Setting: natural RNA segment, single round, ends assumed
Relative to: no-protein control
Direction: higher = stronger binding
Measurement: RBNS enrichment (R)
Residues (chain): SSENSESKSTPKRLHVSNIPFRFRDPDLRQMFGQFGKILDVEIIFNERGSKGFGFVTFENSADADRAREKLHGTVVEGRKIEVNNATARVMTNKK
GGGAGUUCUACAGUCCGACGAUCAUUCAAAAAGAUAGUUAAAUCAUGCUACUGAGCCUAUGAUGUCGUUGAUGUUUGGUUCGGUAUUCUUGCAUAAAACUUAAAAAUUAAACGAACGCUGCAGAGUUUACUGAUGGAAUUCUCGGGUGCCAA: 0.25
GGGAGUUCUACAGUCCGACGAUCCUUUGAGUAGGACAACAAGGAACAUUAAAGAAGGAAAGUUCUAGAACAAUCUUUUGCUAAAAAAAAAAAAAAAGAAAGAAAUUGCUUUAUGGUGAAAACUGUGGGAAGGGUGGAAUUCUCGGGUGCCAA: 0.732
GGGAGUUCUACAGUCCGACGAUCAUCAGGCUUCUGCAAAAGCUCUUCUUCCUGAAGACAGACCCAGCCUUUGUGCUCUCACCCUCCACUCUGGUAAAGCUGCACCUCUGGGGGAAUGAGGGGCUGCAGGAAUCUGGAAUUCUCGGGUGCCAA: 0.467
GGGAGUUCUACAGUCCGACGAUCACAUAUGUAUUGUUAAUUAUAAAUAUAGAUAAGUAAUGACAUAAUAGAUGAAAAAGUCUUAUUCAGAUGUAUCACAUUCAUUUUACAUUACCCACCUAUUGUCGCAUGGUUGGAAUUCUCGGGUGCCAA: 0.573
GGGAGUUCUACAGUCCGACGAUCCCCCCUCUCCGGAGCGCUUUGUAAUGCCUUAUUCACGUCGAAAACCAGGAGACUCGGGCUUCGUUUCUUCAUGGCAAGUCUUCAGAGUUAAUUUUCUUUAGAUGUGUAAAUGGAAUUCUCGGGUGCCAA: 0.475
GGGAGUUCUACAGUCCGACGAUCGUGCUGGAAGCUGUUUGCACCUUUGUCAGGACACUGCGUUUCAGAAGCCACUGUUCCCUCUGGUGGCUUUUACAUGUCGGUGGCUGGCAUACCAUAUAGUAACAGCAGUAUGGAAUUCUCGGGUGCCAA: 0.329
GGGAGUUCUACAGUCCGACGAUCUCCUAGAGCGCCCGGUGCCCCUCCCCGGCCUCCGGAAGAUCAGGGUGCGAGGUGUCGGUUCCCUCCUGUCCUGUGGUCCUGCCCCUGGGAUGGGGGUGCCUUGCUCCAGCUGGAAUUCUCGGGUGCCAA: 0.441
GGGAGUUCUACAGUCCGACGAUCCACACCACAGAAAAGCACAACCCUCUGGGGAGGAGACCAUCCCUCAAGGCCGGGGGUCGUGGCUUUGGCCUCUGACUUCUAAGCCAAGAUGCCCUGUAAACACUCUCUCAUGGAAUUCUCGGGUGCCAA: 0.258

Sample 4
Organism: Saccharomyces cerevisiae
Effect on: pheromone growth arrest
Method: yeast competitive growth sequencing
Form: peptide
Strain: no Cln2 overexpression
Setting: peptide tiling library
Direction: direction not given
Measurement: enrichment score
SCCKRKLVVGNGPEGP: -0.443
GAEELEDLVHFSVSEL: 0.48
RKLDLEGIGR: 0.48
NFETPEAETPIRSPFK: 0.387
NNIRKALSFDNRGEEH: -0.145
ARKRLELGNLGNPQ: -0.413
PQWPCGKHKRVLIFAS: -0.105
DWDTVERQEEEAPSWD: 0.747
TTTTSPRTPPPLTVQD: 0.399
VSRNLRSSLKSSLHTL: 0.0975
PPTFLSTGEIHAFLSS: 0.014

Sample 5
Target: Sal-like protein 4, full length isoform A (SALL4, Homo sapiens, UniProt Q9UJQ4, residues 1-1053)
UniProt Q9UJQ4, sequence (whole entry, looked up): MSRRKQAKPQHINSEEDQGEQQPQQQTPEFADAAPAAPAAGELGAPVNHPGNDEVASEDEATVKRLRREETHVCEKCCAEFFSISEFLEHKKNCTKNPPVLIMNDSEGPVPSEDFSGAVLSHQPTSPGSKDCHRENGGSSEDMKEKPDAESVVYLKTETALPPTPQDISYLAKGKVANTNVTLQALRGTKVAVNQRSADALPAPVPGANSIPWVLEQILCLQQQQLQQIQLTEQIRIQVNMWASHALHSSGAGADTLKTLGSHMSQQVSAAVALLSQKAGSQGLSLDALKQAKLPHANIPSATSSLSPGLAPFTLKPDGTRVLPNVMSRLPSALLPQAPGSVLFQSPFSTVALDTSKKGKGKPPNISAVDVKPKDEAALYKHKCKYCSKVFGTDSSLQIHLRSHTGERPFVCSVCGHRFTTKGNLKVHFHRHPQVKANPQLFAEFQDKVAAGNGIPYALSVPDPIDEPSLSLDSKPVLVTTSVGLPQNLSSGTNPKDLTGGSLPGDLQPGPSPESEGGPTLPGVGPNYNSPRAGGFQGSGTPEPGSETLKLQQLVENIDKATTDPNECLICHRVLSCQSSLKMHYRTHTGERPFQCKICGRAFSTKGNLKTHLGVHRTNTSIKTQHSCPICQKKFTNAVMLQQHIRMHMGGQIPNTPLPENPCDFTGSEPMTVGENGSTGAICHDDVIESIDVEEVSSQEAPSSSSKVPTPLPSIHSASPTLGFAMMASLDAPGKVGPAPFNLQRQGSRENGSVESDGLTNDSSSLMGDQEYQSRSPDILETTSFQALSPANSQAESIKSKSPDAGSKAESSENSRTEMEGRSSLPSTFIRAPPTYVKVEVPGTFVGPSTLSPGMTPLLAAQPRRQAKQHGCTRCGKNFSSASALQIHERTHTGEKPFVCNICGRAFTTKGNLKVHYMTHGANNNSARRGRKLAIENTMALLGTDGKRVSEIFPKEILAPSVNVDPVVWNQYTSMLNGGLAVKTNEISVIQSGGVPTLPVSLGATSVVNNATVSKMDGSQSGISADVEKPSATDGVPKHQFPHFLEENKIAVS
Method: universal PBM
Form: double-stranded DNA, one strand shown
Matrix: in vitro
Tested at: 600 nM
Setting: 8-mer, flanks averaged, mean of replicates
Direction: higher = stronger binding
Measurement: E-score
AGTAATTC: 0.214
ACGAGGGA: 0.0182
GTGCCAAC: -0.172
GTCGTGGA: -0.118
CCAGGTGC: -0.259
GTCAGAGA: -0.0274
AAGAGCAC: -0.0591
AAGTAGAG: 0.135
GACTGACA: 0.102
TACTTGCA: 0.158
CCTAGGAC: -0.168
CACATCTG: -0.0436
CCTATTGA: 0.217
ATTTAAGC: 0.269
TAGGTGCA: -0.113
TACCCATA: 0.191
AACATCGT: -0.0296
ATTGGTTA: 0.255
CCTGAGTA: 0.00961
AGAATAAA: 0.357
GGGATTAA: -0.00378
CAGTACGG: 0.00274
CCAAGTAC: -0.0796
CAACCCCG: -0.348
AAGCTTCA: -0.0817

Some of these lines once more (sample 3):
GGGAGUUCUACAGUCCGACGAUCACAUAUGUAUUGUUAAUUAUAAAUAUAGAUAAGUAAUGACAUAAUAGAUGAAAAAGUCUUAUUCAGAUGUAUCACAUUCAUUUUACAUUACCCACCUAUUGUCGCAUGGUUGGAAUUCUCGGGUGCCAA: 0.573
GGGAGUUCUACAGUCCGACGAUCGUGCUGGAAGCUGUUUGCACCUUUGUCAGGACACUGCGUUUCAGAAGCCACUGUUCCCUCUGGUGGCUUUUACAUGUCGGUGGCUGGCAUACCAUAUAGUAACAGCAGUAUGGAAUUCUCGGGUGCCAA: 0.329
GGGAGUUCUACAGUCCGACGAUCAUCAGGCUUCUGCAAAAGCUCUUCUUCCUGAAGACAGACCCAGCCUUUGUGCUCUCACCCUCCACUCUGGUAAAGCUGCACCUCUGGGGGAAUGAGGGGCUGCAGGAAUCUGGAAUUCUCGGGUGCCAA: 0.467
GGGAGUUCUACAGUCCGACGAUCCCCCCUCUCCGGAGCGCUUUGUAAUGCCUUAUUCACGUCGAAAACCAGGAGACUCGGGCUUCGUUUCUUCAUGGCAAGUCUUCAGAGUUAAUUUUCUUUAGAUGUGUAAAUGGAAUUCUCGGGUGCCAA: 0.475
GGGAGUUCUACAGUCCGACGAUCCUUUGAGUAGGACAACAAGGAACAUUAAAGAAGGAAAGUUCUAGAACAAUCUUUUGCUAAAAAAAAAAAAAAAGAAAGAAAUUGCUUUAUGGUGAAAACUGUGGGAAGGGUGGAAUUCUCGGGUGCCAA: 0.732
